Measurements of several laboratories.
Protocols differ between the studies behind these lines. ± marks the error that the study gave.

`COc1ccc(C[C@H]2NC(=O)/C=C/C[C@@H]([C@H](C)[C@@H](OC(=O)CNC(=O)OCc3cc(NC(=O)CCCc4cn(CCC(=O)NCCCC[C@@H]5NC(=O)[C@@H](Cc6ccccc6)NC(=O)[C@H](CC(=O)O)NC(=O)CNC(=O)[C@H](CCCNC(=N)N)NC5=O)nn4)cc(O[C@@H]4O[C@H](C(=O)O)[C@@H](O)[C@H](O)[C@H]4O)c3)[C@@H](Cl)c3ccccc3)OC(=O)[C@H](CC(C)C)OC(=O)C(C)(C)CNC2=O)cc1Cl` gave an IC50 of 0.308 ± 0.022 µM (M21; cytotoxicity, resazurin; 2 h plus 70 h incubation, with β-glucuronidase 2 U/well).
`CC(C)c1ccc2c(c1)CC[C@H]1[C@](C)(CN)CCC[C@]21C` gave an IC50 of 1.78 µM (UACC-903; cell growth or viability, MTS; 24 h).
`O=C(Cn1cnc2ccccc2c1=O)Nc1cc(Cl)ccc1O` gave an IC50 of greater than 100 µM (MDA-MB-231; cell growth or viability, crystal violet; 48 h).
`COc1ccc(C[C@H]2NC(=O)/C=C/C[C@@H]([C@H](C)[C@@H](OC(=O)CNC(=O)CCc3cn(CCOCCOCCOCCOCC(=O)NCc4ccc(CN5C(=O)[C@H]6CC(=O)N[C@H](C(=O)O)CC(=O)NCC(=O)N[C@@H](CCCNC(=N)N)C(=O)NC[C@H]5C(=O)N6)cc4)nn3)[C@@H](Cl)c3ccccc3)OC(=O)[C@H](CC(C)C)OC(=O)C(C)(C)CNC2=O)cc1Cl` has an IC50 of 0.141 ± 0.0133 µM (M21-L human melanoma (integrin αv-negative); cell viability, MTT; 2 h treatment plus 70 h).
`CN1CCN(C2Cc3ccccc3Sc3ccc(Cl)cc32)CC1` (stereo not drawn) has an IC50 of 62.8 µM (HepG2; cell viability, ATP content; 24 h).
For `N.N.[Cl][Pt][Cl]`, the IC50 was 83 ± 1.1 µM (CCD-18Co colon fibroblasts; cell viability, MTS; 24 h).
`O=C(NC12CC3CC(CC(C3)C1)C2)c1ccc(NC(=O)c2cc3c(F)cc(F)cc3[nH]2)cc1` has an IC50 of greater than 10 µM (KNS-42; cell growth or viability, resazurin; 72 h).
For `COc1cc(/C=C/C(O)=C/C(=O)/C=C/c2ccc(O)cc2)ccc1O`, the IC50 was greater than 50 µg/mL (Hs68; cell growth or viability, MTT; 48 h).
With `CC1=C(/C=C/C(C)=C/C=C/C(C)=C/C(=O)Nc2ccc(O)cc2)C(C)(C)CCC1` the IC50 was 18.4 µM (HEK293 expressing MOR; cAMP overshoot, inhibitor, HTRF cAMP; added: morphine then naloxone).
`Nc1cccc2c(N)cccc12`: IC50 “inactive” (HepG2; mitochondrial membrane potential, high content imaging; 5 h).
With `N.N.[Cl][Pt][Cl]` the IC50 was 29.5 µM (MCF-10A; cell growth or viability, MTT).
For `C#CC[C@H](NC(=O)CNC(=O)CNC(=O)[C@H](Cc1ccc(O)cc1)NC(=O)[C@H](CCCNC(=N)N)NC(=O)[C@H](CCC(N)=O)NC(=O)[C@@H]1CCCN1C(=O)[C@H](CCC(N)=O)NC(=O)[C@H](Cc1ccc(O)cc1)NC(=O)[C@@H](NC(=O)[C@H](CCCNC(=N)N)NC(=O)[C@@H]1CCCN1C(=O)[C@H](CCCNC(=N)N)NC(=O)[C@H](CC(C)C)NC(=O)[C@H](CC(N)=O)NC(=O)[C@H](Cc1ccc(O)cc1)NC(=O)CNC(=O)CN)[C@@H](C)O)C(N)=O`, the IC50 was greater than 200 µM (A2780cisR; cell growth or viability, MTT; 72 h, drug-resistant strain).
With `CC[C@H](C)[C@H](N)C(=O)N[C@@H](CC(C)C)C(=O)N[C@@H](CCCNC(=N)N)C(=O)N[C@@H](Cc1c[nH]c2ccccc12)C(=O)N[C@@H](CO)C(=O)N[C@@H](CCCNC(=N)N)C(=O)N[C@@H](CCCCN)C(=O)N[C@@H](CC(C)C)C(=O)N1CCC[C@H]1C(=O)N[C@@H](CS)C(=O)N[C@H](C(=O)N[C@@H](CO)C(=O)O)C(C)C` the IC50 was 2.62 ± 1.4 µM (SUP-T1; AKT phosphorylation, inhibitor, phosphoflow cytometry; added: CXCL12 100 ng/mL, 2 min).
With `O=C(NCc1ccccc1)c1cc2c(F)cc(F)cc2[nH]1` the IC50 was 8.25 µM (KNS-42; cell growth or viability, resazurin; 72 h).
The IC50 of `N=C(N)NCCC[C@H](NC(=O)[C@H](Cc1c[nH]c2ccccc12)NC(=O)[C@H](CCC(N)=O)NC(=O)[C@H](Cc1c[nH]c2ccccc12)NC(=O)[C@H](CCCNC(=N)N)NC(=O)[C@H](Cc1c[nH]c2ccccc12)NC(=O)[C@H](CCC(N)=O)NC(=O)[C@H](Cc1c[nH]c2ccccc12)NC(=O)[C@H](CCCNC(=N)N)NC(=O)CCCCCN)C(N)=O` is reported as 40 µM (Caco-2; cell growth or viability, MTT).
`N#CC1(c2ccc(NC(=O)c3cccnc3NCc3ccncc3)cc2)CCCC1` has an IC50 of 1.65 µM (MHCC97H; cell growth or viability, MTT; 48 h).
With `COc1cc(C(=O)c2oc3c(OC)cccc3c2N)cc(OC)c1OC` the IC50 was 6.39 µM (L1210; cell growth or viability).
`C=C(C)C1CC=C(COC(=O)CCC(=O)OC2OC3OC4(C)CCC5C(C)CCC(C2C)C35OO4)CC1` (stereo not drawn) gave an IC50 of 5.6 ± 0.6 µM (SK-MEL3; cell viability, MTT; 24 h, added: deferoxamine 20 µM, 1 h before).
For `COc1ccc(C[C@H]2NC(=O)/C=C/C[C@@H]([C@H](C)[C@@H](OC(=O)CNC(=O)OCc3ccc(NC(=O)[C@H](C)NC(=O)[C@@H](NC(=O)CCc4cn(CCOCCOCCOCCOCC(=O)NCc5ccc(CN6C(=O)[C@H]7CC(=O)N[C@@H](CCCNC(=N)N)C(=O)NCC(=O)N[C@@H](CC(=O)O)C(=O)NC[C@H]6C(=O)N7)cc5)nn4)C(C)C)cc3)[C@@H](Cl)c3ccccc3)OC(=O)[C@H](CC(C)C)OC(=O)C(C)(C)CNC2=O)cc1Cl`, the IC50 was 0.0727 ± 0.0112 µM (M21 human melanoma (integrin αvβ3-positive); cell viability, MTT; 2 h treatment plus 70 h).
The tissue uptake of `CN[C@@](C)(C[18F])C(=O)O` is reported as 2 ± 0.3 %ID/g (SCID mouse MDA-MB-468 xenograft, lung; 60 min, post injection).
With `O=c1[nH]c2ccccc2n1C1CCN(Cc2ccc(-c3nc4cc5[nH]cnc5cc4nc3-c3ccccc3)cc2)CC1` the IC50 was 3.7 ± 0.9 µM (HeLa expressing Ub(G76V)-GFP; Ub(G76V)-GFP degradation, inhibitor, cycloheximide chase).
For `COC(=O)/C=C/c1cc(O)ccc1O`, the IC50 was greater than 10 µM (H3255 (EGFR L858R); cell viability, Alamar Blue; 120 h).
With `CC(C)c1c(Cl)nc(N)nc1Cl` the IC50 was 19.6 µM (mouse peritoneal cells; nitric oxide production, Griess; 24 h, added: LPS plus IFN-gamma).
`N.N.[Cl][Pt][Cl]` has an IC50 of 18.5 µM (K562; cell growth or viability, resazurin).
With `C1N2CN3CN1CP(C2)C3.Cc1cc(C)n(C(C(=O)OC(C)C)n2nc(C)cc2C)n1.F[P-](F)(F)(F)(F)F.[Cu+]` the IC50 was 14.9 ± 1 µM (LoVo OXP, oxaliplatin-resistant; MTT; 72 h).
`N.N.[Cl][Pt][Cl]` gave an IC50 of 13 ± 1.5 µM (KCL-22; cell viability, trypan blue exclusion; 48 h, dark).
The IC50 of `N.N.[Cl][Pt][Cl]` is reported as 2.8 µM (DU-145; cell growth or viability, SRB).
With `COC(=O)C[C@H](O)COC(=O)/C=C/CCl` the IC50 was 7.8 µM (RAW264.7; NO release, inhibitor; LPS-stimulated).
With `CCCCCCCCCCC[C@@H](C[C@@H]1OC(=O)[C@H]1CCCCCC)OC(=O)[C@H](CC(C)C)NC=O` the IC50 was 68 µM (PANC-1; colony formation).
`C[C@@H](Oc1cc(-c2cnn(C3CCNCC3)c2)cnc1N)c1c(Cl)ccc(F)c1Cl` gave an IC50 of 15.4 µM (Ba/F3 parental; cell proliferation; 72 h, added: IL-3).

Some of these lines once more:
With `CC1=C(/C=C/C(C)=C/C=C/C(C)=C/C(=O)Nc2ccc(O)cc2)C(C)(C)CCC1` the IC50 was 18.4 µM (HEK293 expressing MOR; cAMP overshoot, inhibitor, HTRF cAMP; added: morphine then naloxone).
`Nc1cccc2c(N)cccc12`: IC50 “inactive” (HepG2; mitochondrial membrane potential, high content imaging; 5 h).
With `N.N.[Cl][Pt][Cl]` the IC50 was 29.5 µM (MCF-10A; cell growth or viability, MTT).
For `C#CC[C@H](NC(=O)CNC(=O)CNC(=O)[C@H](Cc1ccc(O)cc1)NC(=O)[C@H](CCCNC(=N)N)NC(=O)[C@H](CCC(N)=O)NC(=O)[C@@H]1CCCN1C(=O)[C@H](CCC(N)=O)NC(=O)[C@H](Cc1ccc(O)cc1)NC(=O)[C@@H](NC(=O)[C@H](CCCNC(=N)N)NC(=O)[C@@H]1CCCN1C(=O)[C@H](CCCNC(=N)N)NC(=O)[C@H](CC(C)C)NC(=O)[C@H](CC(N)=O)NC(=O)[C@H](Cc1ccc(O)cc1)NC(=O)CNC(=O)CN)[C@@H](C)O)C(N)=O`, the IC50 was greater than 200 µM (A2780cisR; cell growth or viability, MTT; 72 h, drug-resistant strain).
With `CC[C@H](C)[C@H](N)C(=O)N[C@@H](CC(C)C)C(=O)N[C@@H](CCCNC(=N)N)C(=O)N[C@@H](Cc1c[nH]c2ccccc12)C(=O)N[C@@H](CO)C(=O)N[C@@H](CCCNC(=N)N)C(=O)N[C@@H](CCCCN)C(=O)N[C@@H](CC(C)C)C(=O)N1CCC[C@H]1C(=O)N[C@@H](CS)C(=O)N[C@H](C(=O)N[C@@H](CO)C(=O)O)C(C)C` the IC50 was 2.62 ± 1.4 µM (SUP-T1; AKT phosphorylation, inhibitor, phosphoflow cytometry; added: CXCL12 100 ng/mL, 2 min).
